Results of several laboratories.
Every numbered part comes from another study and shows a few of its results, in no order. Positions count from the first letter of the parent shown.

Block 1 — method: protein-binding microarray; molecule type: double-stranded DNA, one strand shown; matrix: in vitro; concentration: 0.8 µM; setting: whole 60-bp probe, no competitor; reading: higher = stronger binding; constant ends, left off below: … GTCTTGATTCGCTTGACGCTGCTG
Target: Centromere-binding protein 1, full length, N-terminal tag (CBF1, Saccharomyces cerevisiae, UniProt P17106, residues 1-351)
UniProt P17106, sequence (whole entry, looked up): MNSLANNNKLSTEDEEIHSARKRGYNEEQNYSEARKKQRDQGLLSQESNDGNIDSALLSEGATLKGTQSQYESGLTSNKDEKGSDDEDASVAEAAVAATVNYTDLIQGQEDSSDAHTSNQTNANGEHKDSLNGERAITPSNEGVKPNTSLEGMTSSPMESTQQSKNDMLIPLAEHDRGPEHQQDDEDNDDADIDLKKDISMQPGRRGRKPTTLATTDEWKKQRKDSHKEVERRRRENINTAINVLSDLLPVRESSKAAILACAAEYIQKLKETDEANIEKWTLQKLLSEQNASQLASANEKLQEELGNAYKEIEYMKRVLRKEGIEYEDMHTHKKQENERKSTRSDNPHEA
Strand	fluorescence intensity [a.u.]
GAAACTAGCCATTGCCACGTAAAATGGCAAGACTAG	477
GAAAATAAAAAAAGCCACGTTAGATATAGTATTTAG	534
CTAAGTAGAATACTACACGTGCAATCGGTAGCATTC	3560
GAATTGGAATGTGTTCACGTGACGCTATCGACATAG	18900
GAACCAACATTATTAATCGTGACTAATATAACATAG	919
CCTAACTACTATAGACACGTTCCATAGCTTCGTACA	558
CTAGCTCAACATAGACACGTTATGGACGGGCATTTC	508
CTATTTGATGGTATACGCCTGATGTTTTTTTCGTTC	573
CTATCATTGAAATTTTACGTGACACCATCATTTTTC	589
CTAGATTTACATAATCAGGAGAGTCTATATATATTC	537
GAAATCGGTCAGTATCACGCTCATATGACAAGATAG	815
GAATATTGAACCAATCACGACGCTTTTTCTCTTTAG	594
GAAACCGGTTTGCAACACATGAATGGCGCACATTAG	502
CTAAGTAATAGCGATCACGTGATTATCCGTGGATTC	40400
GAATCGGAAGAACACCACATGATGCAAGTTCTCTAG	863
GAAAAACAAAATATTCACATGTTTTTCTCACCTTAG	644
CTATCCAGGTATTTACACGTTTAACTGGTTTGTTTC	521
GAATGCGATACTTATCACGTACTTTGTATACATTAG	634
TGTACGAAGCTATAAGGTGTGACTATAGTAGTTAGG	618

Block 2 — method: RNA Bind-n-Seq; molecule type: RNA; matrix: in vitro; concentration: 365 nM; relative to: no-protein control; reading: higher = stronger binding
Target: RNA binding protein fox-1 homolog 2, RRM domain, GST-SBP tag (RBFOX2, Homo sapiens, UniProt O43251-10, residues 100-194)
Setting: natural RNA segment, single round, ends assumed
Constant ends, left off below: GGGAGUUCUACAGUCCGACGAUC … UGGAAUUCUCGGGUGCCAA
Construct (chain): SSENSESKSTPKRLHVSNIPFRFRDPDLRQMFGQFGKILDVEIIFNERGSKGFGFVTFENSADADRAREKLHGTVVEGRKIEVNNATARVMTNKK
Strand	RBNS enrichment (R)
CUUCAAGAAAAACUAAAAUGAUUUAGUUGGAGCAAAGCUUUAAGUGUGUUGGUGUGCUUCUGUGUGGCUGUCCCUGUUGCUAGCAGAUCACAGUGAUUUGGUCCCAUUGG	0.536
GUCUUUCGCAUCAUAUUCGUUAGCAUUUAUUUGGUGGCAGAAUGUUUGCCUAGGUACAGAAUUAAUAGCCCUUAGCAACGACUGCUGCUGGUGUGUAUUUUUGUAAAUGU	1.43
CCAGUUCAUAAUUUAUAAAGAAGCAGUUUGUGUGUGUGUGGGUGUGUGUGUGCUCGCGAGCGCCAUCCACACUGGUCCUUUAGCAUUGUUUCCAUCAUAUUGCAGUGUAU	1.89
AAUUAAGGGAGCUGAGCCAGUCAUGGUUGUGGCGUGUGAGUCAGGAGACCUAGGUUUCAGCCCCUCUCUACUGUCAGCGAGCUGUGCAACGUGGGCAAGUCAUUGUCCUC	0.283
UCUGGUAUCUAAAUACUGAGAAGUUCAUUUAUAAUUCAGCCUUGACUUGAAAACAUAGAUAGUUUAAUCUUGACUUGAAAAACACAAAAAUAAAUUCAGAAAAUGCUUUU	0.983
GAGAUUUCUGAUGUUAGAGGGAGAUGGAGAGGCUUCCUGAUGCCUCAUCUGCAGGGUCCUGUGCCUCUGAAGUUCUAGCCAUGAGGUUUCCAGGUAGGACAGCUGCUCCC	0.356
UGUUCAAAACUCUAAGCCCUACCACCUCCCCUUUAAUAAGCUCUUUAAAUAGUUGAAUCAUUAACAACCUGGUGGGAGGCAAGUCAUUUAAUUGAACCACUAGGAAGUGU	0.531
UCUUUUGUACAAAUAUCUACAAAGCAGAUAAUAUCCCUAUCCAGUGCUUGCCCUUGGAAUUGUCUCUAAAUGCAUCAAGCAUACAAUAAAAAAAACUGAAAUUAACAUCC	0.735

Block 3 — method: DHFR PCA, deep sequencing; matrix: yeast; added: (+)-ABA 1.4 µM; relative to: wild-type fitted maximum; reading: higher = stronger binding
Target: ABI1, truncated, D143A, DHFR fusion (Arabidopsis thaliana)
Setting: methotrexate growth selection, single substitutions
Starting sequence: PYL1, truncated, DHFR fusion (Arabidopsis thaliana); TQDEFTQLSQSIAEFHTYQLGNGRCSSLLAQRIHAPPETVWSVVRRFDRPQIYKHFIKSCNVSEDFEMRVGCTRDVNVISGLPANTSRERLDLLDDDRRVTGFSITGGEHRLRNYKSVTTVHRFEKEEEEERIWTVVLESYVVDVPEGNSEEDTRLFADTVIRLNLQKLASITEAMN
Variant	relative binding score
T1I	62.2%
P37A	30.2%
Q167F	4%
R74F	-1.77%
E4N	16.6%
A175K	47.5%
P36R	40.2%
N85W	51.8%
E38M	11%
E128Q	71.2%
Q2F	72.2%
L169Q	8.62%
R88G	-8.57%
E129F	47.7%
R88K	66.7%
D97V	60.6%
E4L	60.8%
K168A	24%
D153L	-10.2%
T119C	30%
R99K	70.6%

Block 4 — method: protein binding microarray; molecule type: double-stranded DNA, one strand shown; matrix: in vitro; concentration: not given; relative to: not given; reading: higher = stronger binding
Target: Histone acetyltransferase KAT6A, both winged helices, GST fusion (KAT6A, Homo sapiens, UniProt Q92794, residues 1-181)
Setting: 8-mer, flanks averaged, mean of 2 arrays, mostly near background
Target sequence (chain): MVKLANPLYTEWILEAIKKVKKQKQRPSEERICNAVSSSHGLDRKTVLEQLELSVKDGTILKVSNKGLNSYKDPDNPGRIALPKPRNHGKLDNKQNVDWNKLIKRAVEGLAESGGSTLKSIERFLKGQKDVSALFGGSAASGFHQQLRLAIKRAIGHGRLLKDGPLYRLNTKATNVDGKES
Strand	E-score
TAAGTGTA	-0.0878
ACTAGTGA	-0.165
CCATCAAA	-0.153
TGGGCCAA	-0.194
GACGGTGC	0.243
TTAACTAA	0.0798
AGTTGGCC	-0.17
ACATGTCT	0.0374
CCCAGTAG	-0.088
ATATTCAA	0.108
GCGTGTCA	0.238
AGTCGATG	-0.176
TCCTGACA	-0.205
TTCAAAAA	-0.101
CGTATACA	0.0995
AAGATAAT	-0.0549
ACCATATC	-0.0757
GACTCCCA	-0.285
CGCATCTC	0.188
CCACGCTA	-0.0468
ACCGTTTG	0.114
AAAGCGGG	0.209
GCCGGTAC	0.202
ACTGGGAA	-0.126
AAGGTTTA	-0.156

For quick reference, copied from above (block 4):
Strand	E-score
CCATCAAA	-0.153
GACTCCCA	-0.285
ACCATATC	-0.0757
ACATGTCT	0.0374
GCCGGTAC	0.202
GCGTGTCA	0.238
